Published values of several laboratories.
Numbered parts are unrelated; each lists some results of a single study. Positions count from the first letter of the parent shown.

Sample 1
Target: ABI1, truncated, D143A, DHFR fusion (Arabidopsis thaliana)
Method: DHFR PCA, deep sequencing
Sample: yeast
Notes: methotrexate growth selection, single substitutions
With: (+)-ABA 58 µM
Baseline: wild-type fitted maximum
Reading: higher = stronger binding
Starting sequence: PYL1, truncated, DHFR fusion (Arabidopsis thaliana); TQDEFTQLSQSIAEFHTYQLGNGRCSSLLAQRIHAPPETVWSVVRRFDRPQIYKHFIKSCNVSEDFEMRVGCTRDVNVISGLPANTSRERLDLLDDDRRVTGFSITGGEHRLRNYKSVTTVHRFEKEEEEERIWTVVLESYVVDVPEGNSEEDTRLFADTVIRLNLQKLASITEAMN
`V136N`: “relative binding score” 25.4%.
For `H55L`, “relative binding score” read 88.5%.
`R111Y`: “relative binding score” 30.8%.
`Q167N` — result for “relative binding score”: 74.2%.
Under “relative binding score”, `S26H` is recorded as 91%.
`Q51P`: “relative binding score” -35%.
`F124R`: “relative binding score” 58.5%.
`I33Q`: “relative binding score” -7.38%.
Under “relative binding score”, `T73R` is recorded as 69.8%.
Under “relative binding score”, `A170H` is recorded as 25.4%.
Under “relative binding score”, `C72V` is recorded as 85.2%.
For `G23E`, “relative binding score” read 73.2%.
For `P36Y`, “relative binding score” read 66.8%.

Sample 2
Target: PABPC1L2, full length, GST fusion (mouse, UniProt A0ABA7IW68)
Method: RNAcompete
Molecule type: RNA
Sample: in vitro
Tested at: 20 nM
Notes: 7-mer, probes averaged, single round
Baseline: mean of 7-mers
Reading: higher = stronger binding
Residues (chain): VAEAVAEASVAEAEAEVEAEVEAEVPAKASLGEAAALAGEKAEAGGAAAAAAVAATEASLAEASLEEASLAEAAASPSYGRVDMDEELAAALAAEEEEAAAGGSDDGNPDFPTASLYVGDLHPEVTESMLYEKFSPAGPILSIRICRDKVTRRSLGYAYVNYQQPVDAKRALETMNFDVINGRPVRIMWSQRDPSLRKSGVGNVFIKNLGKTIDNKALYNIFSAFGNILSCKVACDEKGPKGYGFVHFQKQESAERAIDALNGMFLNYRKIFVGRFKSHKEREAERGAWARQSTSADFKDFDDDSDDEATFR
For `CCUCAUC`, the 7-mer Z-score was -0.325.
`CAUGCAG` has a 7-mer Z-score of -0.00652.
For `GGCGACU`, the 7-mer Z-score was 0.0805.
`UGACGUA` has a 7-mer Z-score of -0.206.
For `CACCUAA`, the 7-mer Z-score was -0.121.
With `GCAUUGC` the 7-mer Z-score was -0.179.
The 7-mer Z-score of `UAAAUGG` is reported as 0.717.
For `CCCGAAA`, the 7-mer Z-score was 0.948.
For `GUUCAAU`, the 7-mer Z-score was -0.133.
`ACGCUGG` has a 7-mer Z-score of -0.146.
With `GUCUUAG` the 7-mer Z-score was -0.421.

Sample 3
Target: RNA binding protein fox-1 homolog 2, RRM domain, GST-SBP tag (RBFOX2, Homo sapiens, UniProt O43251-10, residues 100-194)
Method: RNA Bind-n-Seq
Molecule type: RNA
Sample: in vitro
Tested at: 365 nM
Notes: natural RNA segment, single round, ends assumed
Baseline: no-protein control
Reading: higher = stronger binding
Target sequence (chain): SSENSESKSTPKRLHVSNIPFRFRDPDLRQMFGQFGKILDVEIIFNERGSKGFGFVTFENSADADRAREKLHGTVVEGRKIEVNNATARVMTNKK
For `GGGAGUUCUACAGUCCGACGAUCGCCUUCGACAAAAGUGUGUAUUUGUCCCGGGGAGGGUAGCAGUGGGCCAUGGGGCUUCUUGUGCCCUAAAGGGGACUGGCUGCUGUGAUCUUCUAAGGGGCCCAGGGCCAUGGAAUUCUCGGGUGCCAA`, “RBNS enrichment (R)” read 0.443.
Under “RBNS enrichment (R)”, `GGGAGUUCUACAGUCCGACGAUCCCCCAUCUCCUCCUUCCAGCCAGGUCUGGAAGUUUCAACAGCCCAAGCUUAACUUCAUGUAAAGUCUUCACUGCCAGUGGGAACAUCUUUGACACAACAAGACACUCCAAUGGAAUUCUCGGGUGCCAA` is recorded as 0.243.
`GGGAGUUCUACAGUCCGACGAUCUCUACUGACCUGAAUGUGUUGGAUCUUCACGUGUCGUUUUGUUUUGGCUUUAUUGAUGCACGGAUGCUUUUGAACAGUAGAGCGAAAUGCUAGACAUGGAGAACUUGCUCUGGAAUUCUCGGGUGCCAA` — result for “RBNS enrichment (R)”: 15.5.
Under “RBNS enrichment (R)”, `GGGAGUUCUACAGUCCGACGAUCCACCAUCCAUCUUCAAGAAGCUACUUUGAAAGUCUGGCCAGUGUCUAUUCAGGCCCACUGGGAGUUAGGAAGUAUAAGUAAGCCAAGAGAAGUCAGCCCCUGCCCAGAAGUGGAAUUCUCGGGUGCCAA` is recorded as 0.4.
For `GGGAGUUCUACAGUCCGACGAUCGAAGAUAUAGCAGAAUCUACCCUUCCAGGAAGACAUACAGUUGAAAUGCUGGUCAUUUCCUUUGCAAAGGACAGUCUCUGAAUUAUACCUACAACCUGUUCUGGGACAGUUGGAAUUCUCGGGUGCCAA`, “RBNS enrichment (R)” read 0.21.
For `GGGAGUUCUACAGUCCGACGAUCCUGUCACAUCGCUACAGACAAGACCUCCCUGGAACCCUUCUGAUUGUCUUAGACACUGUGGUUGCAAAACCCACGGAAAGCCUCAUUUGUGUGGAAAGUCAGAGGAAAAAUGGAAUUCUCGGGUGCCAA`, “RBNS enrichment (R)” read 0.469.
Under “RBNS enrichment (R)”, `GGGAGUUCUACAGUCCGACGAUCGAGAAGCAGAUGAAGCUGUACUACCCAGCCCUCUUCUUGUUUGUAUUUGUUUAGGGUUGUGAGGUUGUGUAAAAUAGUACUAGCUUCUUACUUGAGAACUACAGUUUCUGUGGAAUUCUCGGGUGCCAA` is recorded as 1.84.
Under “RBNS enrichment (R)”, `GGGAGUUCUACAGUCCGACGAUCAUGCUUUGUUUUGGGGCUGUAUUUUUGAAAUACUCUACAAGAAAGCUGUGGCUCAACACAUGAGAAGAAGCACGAAGCAGUUAGGCUGUACAUCAGACAGAAGGGUAAUGUGGAAUUCUCGGGUGCCAA` is recorded as 0.794.
`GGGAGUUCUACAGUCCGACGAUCAAUUAUGAUAGAAAUCGAUUUAACACAAUCAGUUAUGGGCUUCCAUUUUCAAAUAUCUUUUCAACUGUAAUGACUAUGACAGGAACUGAUUCAACUCUCAAUUUUCUUUAUGGAAUUCUCGGGUGCCAA` — result for “RBNS enrichment (R)”: 0.517.
`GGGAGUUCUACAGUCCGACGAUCUCAUCAUGGAUACUCAAUUUGUUUUUUCUUAUAGAGAAAAUGAGUAUAUAAGACAAUAUACAAGAAGAAAUAUCAGUGAGUUUUAAAUCAGAACAAGUUACCUGUCACAUUGGAAUUCUCGGGUGCCAA` — result for “RBNS enrichment (R)”: 0.404.
`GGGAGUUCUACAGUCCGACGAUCCACUCAUUGCAGUCUUGUUGAACCAGGGUCCUAACCACUAACAUUGCAAUUUGCUUUGAGACCUUCCCUGUCCUGGGUACUAGGUGCUAUGAAGCCAGCUGACAGAAGCAUGGAAUUCUCGGGUGCCAA`: “RBNS enrichment (R)” 0.809.
`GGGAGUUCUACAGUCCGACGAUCAUUUGUCUAUAUUUCCUACGGUGCAUCUAUAAAGAGUGCACACACCUAUGGGAAACCUAGGUUUCAUUAUAGCUGAAGUAGACACAUGAAUUAAAAACAUUACAAAUGAAUGGAAUUCUCGGGUGCCAA`: “RBNS enrichment (R)” 0.344.

Further values, each from its own experiment
With `PhoQ, residues 284 288 289 292 302 303 TTCLQL` the fold induction was 3.39 (PhoP, residues 12 14 15 18 19 AGCRL (Escherichia coli, UniProt P23836); Sort-seq, refers to: YFP reporter; E. coli; PhoQ-PhoP variant library, with: 10 µM Mg2+; baseline: high Mg2+ state, higher = stronger signaling).

For quick reference, copied from above (sample 2):
`ACGCUGG` has a 7-mer Z-score of -0.146.
For `GGCGACU`, the 7-mer Z-score was 0.0805.
For `CCCGAAA`, the 7-mer Z-score was 0.948.
